# Experimental data collected from several papers.
# Lines come from different studies, so protocols differ. Several values in a cell are separate wells, animals, samples, runs or records. Numbers after ± are the reported error.
# rep main protease: Replicase polyprotein 1ab, main protease (rep, Severe acute respiratory syndrome coronavirus 2, UniProt P0DTD1)
Structure (SMILES),target or system,assay,system,setting,how to read,quantity,value
O=C(Nc1ncc(-c2ccccc2)s1)C1CCCC1,Histoplasma capsulatum,microbial growth,,,,MIC,> 20 µM
O=C(NC[C@H]1CN(C(=O)c2cc(O)ccc2F)CC[C@@]12CCOC2)c1ccc2n[nH]nc2c1,rep main protease,"enzyme activity, inhibitor",,"5 µM, mean of runs",,inhibition,14.7%
C#C[C@]1(OC(C)=O)CC[C@H]2[C@@H]3CCC4=CC(=NO)CC[C@@H]4[C@H]3CC[C@@]21CC (mixture of isomers),SARS-CoV-2,"viral replication, GFP plate reader screen",,cell-based,,EC50,> 100 µM
O=C(c1ccc(-c2ccccc2)cc1)C1CCCN(C(=O)CCc2ccncc2)C1 (centres unmarked),Lassa mammarenavirus,viral replication,Huh-7,"10 µM, 72 h",,remaining activity,45%
CNc1nc(N)ncc1-c1cn([C@@H]2O[C@H](CO)[C@@H](O)[C@@]2(C)F)cn1,Nipah virus,,,concentration not given,,antiviral activity,inactive
NC(=O)c1cccnc1N1CCC(n2cc(Cc3ccccc3)nn2)CC1,Lassa mammarenavirus,viral replication,Huh-7,"10 µM, 72 h",,remaining activity,62%
CCCN(CCC)CCNC(=O)c1cc(-c2ccc(Br)s2)nc2ccccc12,SARS-CoV-2,cytopathic effect,USA_WA1/2020,"retest, 8-point, duplicates",,efficacy,82%
CC[C@H](C)[C@H](NC(=O)[C@H](CC(C)C)NC(=O)[C@H](Cc1c[nH]c2ccccc12)NC(=O)[C@H](CCC(N)=O)NC(=O)[C@@H](NC(=O)[C@H](Cc1ccccc1)NC(=O)[C@H](C)NC(=O)[C@H](CCCCNC(=O)COCCOCCNC(=O)COCCOCCNC(=O)CC[C@H](NC(=O)CCCCCCCCCCCCCCCCCCC(=O)O)C(=O)O)NC(=O)[C@H](CCC(N)=O)NC(=O)[C@H](C)NC(=O)[C@@H](NC(=O)[C@H](CCCCN)NC(=O)[C@H](CC(=O)O)NC(=O)[C@H](CC(C)C)NC(=O)C(C)(C)NC(=O)[C@@H](NC(=O)[C@H](CO)NC(=O)[C@H](Cc1ccc(O)cc1)NC(=O)[C@H](CC(=O)O)NC(=O)[C@H](CO)NC(=O)[C@@H](NC(=O)[C@H](Cc1ccccc1)NC(=O)[C@@H](NC(=O)CNC(=O)[C@H](CCC(=O)O)NC(=O)C(C)(C)NC(=O)[C@@H](N)Cc1ccc(O)cc1)[C@@H](C)O)[C@@H](C)O)[C@@H](C)CC)[C@@H](C)CC)C(C)C)C(=O)N[C@@H](C)C(=O)NCC(=O)NCC(=O)N1CCC[C@H]1C(=O)N[C@@H](CO)C(=O)N[C@@H](CO)C(=O)NCC(=O)N[C@@H](C)C(=O)N1CCC[C@H]1C(=O)N1CCC[C@H]1C(=O)N1CCC[C@H]1C(=O)N[C@@H](CO)C(N)=O,,,healthy subjects,all MAD doses,,subjects with decreased appetite,57.1%
CN1CCN(C(c2ccccc2)c2ccccc2)CC1,Ebola virus Zaire,HIV/EBOV pseudovirion entry,A549,48 h,,IC50,5 ± 1.4 µM
CNC(=O)[C@@H](NC(=O)[C@H](CC(C)C)[C@H](O)C(=O)NO)C(C)(C)C,Daboia russelii,,mouse,"intravenous, 60 µg/mouse, 24 h, drug mixture, added: WB venom 2.5 x LD50 preincubated",,survival,0%
Cc1nc2n(n1)CC(=O)N[C@@H](C(C)C)CN(Cc1ccccc1)CC(=O)N[C@@H](CC(C)C)c1nc(cs1)C(=O)N[C@H]2Cc1ccccc1,Lassa mammarenavirus,viral replication,Huh-7,"10 µM, 72 h",,remaining activity,78%
O=C(Nc1ccc(N2CCCN(C(=O)c3cnccn3)CC2)nc1)c1ccccc1I,Mycobacterium tuberculosis,bacterial growth,H37Ra-lux,168 h,,IC90,> 64 µM
O=C1NCCCOc2cccc(c2)C2c3ccc(cc3CCN2Cc2ncc[nH]2)Oc2ccc(O)c1c2 (centres unmarked),Lassa mammarenavirus,viral replication,Huh-7,"10 µM, 72 h",,remaining activity,52%
CN(C)CCOC1=Cc2ccccc2Sc2ccc(Cl)cc21,SARS-CoV-2,"viral replication, high-content imaging screen",,cell-based,,EC50,> 100 µM
Cc1nc2n(n1)CC(=O)N[C@@H](C(C)C)CN(Cc1ccncc1)CC(=O)N[C@@H](CC(C)C)c1nc(cs1)C(=O)N[C@H]2Cc1ccccc1,Lassa mammarenavirus,viral replication,Huh-7,"10 µM, 72 h",,remaining activity,111%
Nc1ncnc2c([C@@H]3N[C@H](CO)[C@@H](O)[C@H]3O)c[nH]c12,Marburg virus,"viral replication, antibody staining","HeLa, Musoke","6.3 µM, 24 h",,infected cells,8.3%
CCc1c(C(=O)C(N)=O)c2c(OCC(=O)O)cccc2n1Cc1ccccc1,Daboia russelii,,mouse,"intravenous, 120 µg, up to 24 h, given 0 min after venom, added: central venom intraperitoneal",,time of death,> 24 h and 22.4 h
CCCCCCCCCCCCCCNC(=O)CP(=O)(O)O,Bacillus anthracis,,Ames/FL,,,MIC90,0.78 µg/mL
COc1ccc(C[C@@H]2c3cc(Oc4cc(C[C@@H]5c6cc(O)c(OC)cc6CCN5C)ccc4O)c(OC)cc3CCN2C)cc1,SARS-CoV-2,cytopathic effect,Vero E6,"50 µM, replicate run",,mean inhibition,16.7%
Cn1cnc(Cn2c(=O)[nH]/c(=N\c3cc4cn(C)nc4cc3Cl)n(Cc3cc(F)c(F)cc3F)c2=O)n1,,,"human, severe renal impairment","oral, 375 mg, treatment-related dry mouth, Mild severity",,patients with adverse event,0%
O=C1c2c(O)c(=O)ccn2N([C@@H]2c3ccccc3SCc3c2ccc(F)c3F)[C@@H]2COCCN12,Influenza A virus,viral replication,A(H5N6) A/falcon/Hong Kong/4955/2015,mean,,EC50,0.00034 ± 4e-05 µM
CC1CCCCN1CCCNC(=O)c1cc(Sc2ccc(Cl)cc2)nc2ccccc12 (centres unmarked),SARS-CoV-2,cytopathic effect,USA_WA1/2020,first round 5-point,,efficacy,103%
C=CC(=O)Nc1cc(Nc2nccc(-c3cn(C)c4ccccc34)n2)c(OC)cc1N(C)CCN(C)C,SARS-CoV-2,"viral replication, GFP plate reader screen",,cell-based,,EC50,> 100 µM
Cc1nc2n(n1)CC(=O)N[C@@H](C(C)C)CN(Cc1cccc(O)c1)CC(=O)N[C@@H](CC(C)C)c1nc(cs1)C(=O)N[C@H]2Cc1ccccc1,Lassa mammarenavirus,viral replication,Huh-7,"10 µM, 72 h",,remaining activity,90%
CN1CCN(CCCN2c3ccccc3Sc3ccc(S(=O)(=O)N(C)C)cc32)CC1,SARS-CoV-2,"viral replication, high-content imaging screen",,cell-based,,EC50,> 100 µM
Oc1ccccc1-c1nc(-c2cccs2)c(-c2cccs2)[nH]1,SARS-CoV-2,cytopathic effect,USA_WA1/2020,"round 1, 5-point",,efficacy,52.7%
C[C@H](NC(=O)Cc1cc(F)cc(F)c1)C(=O)N[C@H](C(=O)OC(C)(C)C)c1ccccc1,rep main protease,"reporter gene (mKate2), inhibitor",,20 µM,,inhibition,0.00886%
COc1ccc(-c2nc(CN3CCC(C(=O)NCCCN4CCN(c5ccccc5F)CC4)CC3)c(C)o2)cc1OC,SARS-CoV-2,"cytopathic effect, cell-based CPE",USA_WA1/2020,"round 2, 5-point dilution",,efficacy,79.4%
NCCCCCc1cnc[nH]1,Ebola virus Zaire,HIV/EBOV pseudovirion entry,A549,48 h,,IC50,> 100 µM
CSCC(CC(=O)c1ccc(C)cc1)C(=O)O (centres unmarked),rep main protease,"viral replication, mKate2 reporter",SARS-CoV-2,20 µM,,inhibition,0.104%
COc1cccc([C@@H](C)NCCCc2ccccc2Cl)c1,SARS-CoV-2,"viral replication, GFP plate reader screen",,cell-based,,EC50,16.6 µM
Cc1c(NCc2cccnc2)cccc1C(=O)NCc1ccc2nonc2c1,Lassa mammarenavirus,viral replication,Huh-7,"10 µM, 72 h",,remaining activity,59%
CCOc1ccc(NC(=O)c2cnn(-c3ccc(C)c(Cl)c3)c2C2CCNCC2)cc1,SARS-CoV-2,"cytopathic effect, cell-based CPE",USA_WA1/2020,"round 1, 5-point dilution",,AC50,12.6 µM
CCC(CC)COC(=O)[C@H](C)N[P@](=O)(OC[C@H]1O[C@@](C#N)(c2ccc3c(N)ncnn23)[C@H](O)[C@@H]1O)Oc1ccccc1,SARS-CoV-2 replicon,N-HiBiT luminescence,HeLa,0.05 µM,reference: DMSO,replicon activity,133% and 160% and 127% and 89.1% and 138%
O=C(Nc1ccc(N2CCCN(C(=O)c3cnccn3)CC2)nc1)c1ccc(Cl)cc1Cl,Mycobacterium tuberculosis,bacterial growth,H37Ra-lux,168 h,,IC90,> 64 µM
C=C[C@@](C)(/C=C/c1ccc(O)cc1)CCC=C(C)C,Severe acute respiratory syndrome coronavirus 2,"cytopathic effect, inhibitor",Vero C1008,0.7812 µM,,inhibition,0%
COc1ccc2c(c1)N(C[C@H](C)CN(C)C)c1ccccc1S2,SARS-CoV-2,"viral replication, high-content imaging screen",,cell-based,,EC50,> 100 µM
CN(C)c1cccc(C(=O)NCC2CCN(c3cc(-c4ccc(Cl)cc4)n[nH]3)CC2)c1,SARS-CoV-2,cytopathic effect,USA_WA1/2020,"round 2, 5-point",,maximum response,68.7%
Cc1ccc(CN2CCN(c3ncnc4ccccc34)CC2)o1,Lassa mammarenavirus,viral replication,Huh-7,"10 µM, 72 h",,remaining activity,52%
O=C(NCCCN1CCCCC1)c1cc(Sc2ccc(Cl)cc2)nc2ccccc12,SARS-CoV-2,cytopathic effect,USA_WA1/2020,retest 8-point,,maximum response,94.3%
CC1=C(/C=C/C(C)=C/C=C/C(C)=C/C(=O)Nc2ccc(O)cc2)C(C)(C)CCC1,SARS-CoV-2,"viral replication, GFP plate reader screen",,cell-based,,EC50,> 100 µM
CCCCNC(=O)C1CCCN(Cc2nc(-c3ccc(Cl)cc3)oc2C)C1 (centres unmarked),SARS-CoV-2,"cytopathic effect, cell-based CPE",USA_WA1/2020,"round 2, 5-point dilution",,AC50,12.6 µM
COC(=O)N[C@H](C(=O)N1CCC[C@H]1c1ncc(-c2ccc3cc(-c4ccc5nc([C@@H]6CCCN6C(=O)[C@@H](NC(=O)OC)C(C)C)[nH]c5c4)ccc3c2)[nH]1)C(C)C,SARS-CoV-2,"viral replication, high-content imaging screen",,cell-based,,EC50,> 100 µM
CC(C)=CCc1c(O)ccc(C(=O)/C=C/c2ccc(O)cc2)c1O,SARS-CoV-2,viral cytopathic effect,Vero E6,12.5 µM,,mean inhibition,0%

# Some of these lines once more:
Structure (SMILES),target or system,assay,system,setting,how to read,quantity,value
CN(C)CCOC1=Cc2ccccc2Sc2ccc(Cl)cc21,SARS-CoV-2,"viral replication, high-content imaging screen",,cell-based,,EC50,> 100 µM
Cc1nc2n(n1)CC(=O)N[C@@H](C(C)C)CN(Cc1ccncc1)CC(=O)N[C@@H](CC(C)C)c1nc(cs1)C(=O)N[C@H]2Cc1ccccc1,Lassa mammarenavirus,viral replication,Huh-7,"10 µM, 72 h",,remaining activity,111%
Nc1ncnc2c([C@@H]3N[C@H](CO)[C@@H](O)[C@H]3O)c[nH]c12,Marburg virus,"viral replication, antibody staining","HeLa, Musoke","6.3 µM, 24 h",,infected cells,8.3%
CCc1c(C(=O)C(N)=O)c2c(OCC(=O)O)cccc2n1Cc1ccccc1,Daboia russelii,,mouse,"intravenous, 120 µg, up to 24 h, given 0 min after venom, added: central venom intraperitoneal",,time of death,> 24 h and 22.4 h
